Results collected from several papers.
A part holds a random share of what one study measured.
Sequence of UniProt P42685 (whole entry, looked up): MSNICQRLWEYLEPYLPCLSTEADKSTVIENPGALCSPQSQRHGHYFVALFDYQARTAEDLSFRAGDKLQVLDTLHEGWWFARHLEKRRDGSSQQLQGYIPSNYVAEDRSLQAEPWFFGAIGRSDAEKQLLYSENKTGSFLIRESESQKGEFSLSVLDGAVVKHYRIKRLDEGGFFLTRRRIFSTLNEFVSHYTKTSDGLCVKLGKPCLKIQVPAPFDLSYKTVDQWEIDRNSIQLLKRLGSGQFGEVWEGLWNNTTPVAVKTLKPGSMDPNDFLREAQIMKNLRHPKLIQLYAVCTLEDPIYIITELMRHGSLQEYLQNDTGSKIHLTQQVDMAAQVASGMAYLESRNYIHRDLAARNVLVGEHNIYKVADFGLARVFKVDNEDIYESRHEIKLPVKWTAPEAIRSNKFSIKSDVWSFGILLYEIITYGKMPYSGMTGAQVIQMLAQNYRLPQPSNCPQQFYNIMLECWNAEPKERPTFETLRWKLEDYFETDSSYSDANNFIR
Sequence of UniProt Q9HC98 (whole entry, looked up): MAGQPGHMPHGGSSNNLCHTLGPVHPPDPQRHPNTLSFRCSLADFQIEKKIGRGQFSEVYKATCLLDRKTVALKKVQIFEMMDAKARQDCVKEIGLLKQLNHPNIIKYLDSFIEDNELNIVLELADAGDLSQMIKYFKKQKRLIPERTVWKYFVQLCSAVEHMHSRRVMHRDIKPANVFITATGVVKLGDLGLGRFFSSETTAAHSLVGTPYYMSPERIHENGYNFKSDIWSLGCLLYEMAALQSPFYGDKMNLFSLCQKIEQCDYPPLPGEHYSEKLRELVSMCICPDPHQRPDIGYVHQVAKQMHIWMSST
Sequence of UniProt Q9UHD2 (whole entry, looked up): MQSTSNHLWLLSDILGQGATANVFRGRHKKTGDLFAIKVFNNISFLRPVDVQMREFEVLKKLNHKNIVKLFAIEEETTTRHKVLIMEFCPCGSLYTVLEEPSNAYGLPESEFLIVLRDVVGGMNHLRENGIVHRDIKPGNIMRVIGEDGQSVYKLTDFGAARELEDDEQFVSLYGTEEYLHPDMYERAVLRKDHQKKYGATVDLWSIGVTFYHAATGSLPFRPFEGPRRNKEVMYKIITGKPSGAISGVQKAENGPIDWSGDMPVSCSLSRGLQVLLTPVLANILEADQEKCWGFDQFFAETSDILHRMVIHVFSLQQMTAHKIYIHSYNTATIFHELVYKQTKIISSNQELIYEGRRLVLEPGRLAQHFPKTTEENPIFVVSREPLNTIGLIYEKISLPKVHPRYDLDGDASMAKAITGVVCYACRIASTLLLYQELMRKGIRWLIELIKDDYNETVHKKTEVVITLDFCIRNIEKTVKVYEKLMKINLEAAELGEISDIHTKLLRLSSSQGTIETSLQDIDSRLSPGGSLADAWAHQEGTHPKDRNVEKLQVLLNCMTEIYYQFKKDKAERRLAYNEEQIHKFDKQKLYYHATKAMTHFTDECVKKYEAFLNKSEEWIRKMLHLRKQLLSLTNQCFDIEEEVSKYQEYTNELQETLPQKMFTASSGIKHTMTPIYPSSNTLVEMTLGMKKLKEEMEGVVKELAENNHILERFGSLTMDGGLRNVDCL
Sequence of UniProt Q04912 (whole entry, looked up): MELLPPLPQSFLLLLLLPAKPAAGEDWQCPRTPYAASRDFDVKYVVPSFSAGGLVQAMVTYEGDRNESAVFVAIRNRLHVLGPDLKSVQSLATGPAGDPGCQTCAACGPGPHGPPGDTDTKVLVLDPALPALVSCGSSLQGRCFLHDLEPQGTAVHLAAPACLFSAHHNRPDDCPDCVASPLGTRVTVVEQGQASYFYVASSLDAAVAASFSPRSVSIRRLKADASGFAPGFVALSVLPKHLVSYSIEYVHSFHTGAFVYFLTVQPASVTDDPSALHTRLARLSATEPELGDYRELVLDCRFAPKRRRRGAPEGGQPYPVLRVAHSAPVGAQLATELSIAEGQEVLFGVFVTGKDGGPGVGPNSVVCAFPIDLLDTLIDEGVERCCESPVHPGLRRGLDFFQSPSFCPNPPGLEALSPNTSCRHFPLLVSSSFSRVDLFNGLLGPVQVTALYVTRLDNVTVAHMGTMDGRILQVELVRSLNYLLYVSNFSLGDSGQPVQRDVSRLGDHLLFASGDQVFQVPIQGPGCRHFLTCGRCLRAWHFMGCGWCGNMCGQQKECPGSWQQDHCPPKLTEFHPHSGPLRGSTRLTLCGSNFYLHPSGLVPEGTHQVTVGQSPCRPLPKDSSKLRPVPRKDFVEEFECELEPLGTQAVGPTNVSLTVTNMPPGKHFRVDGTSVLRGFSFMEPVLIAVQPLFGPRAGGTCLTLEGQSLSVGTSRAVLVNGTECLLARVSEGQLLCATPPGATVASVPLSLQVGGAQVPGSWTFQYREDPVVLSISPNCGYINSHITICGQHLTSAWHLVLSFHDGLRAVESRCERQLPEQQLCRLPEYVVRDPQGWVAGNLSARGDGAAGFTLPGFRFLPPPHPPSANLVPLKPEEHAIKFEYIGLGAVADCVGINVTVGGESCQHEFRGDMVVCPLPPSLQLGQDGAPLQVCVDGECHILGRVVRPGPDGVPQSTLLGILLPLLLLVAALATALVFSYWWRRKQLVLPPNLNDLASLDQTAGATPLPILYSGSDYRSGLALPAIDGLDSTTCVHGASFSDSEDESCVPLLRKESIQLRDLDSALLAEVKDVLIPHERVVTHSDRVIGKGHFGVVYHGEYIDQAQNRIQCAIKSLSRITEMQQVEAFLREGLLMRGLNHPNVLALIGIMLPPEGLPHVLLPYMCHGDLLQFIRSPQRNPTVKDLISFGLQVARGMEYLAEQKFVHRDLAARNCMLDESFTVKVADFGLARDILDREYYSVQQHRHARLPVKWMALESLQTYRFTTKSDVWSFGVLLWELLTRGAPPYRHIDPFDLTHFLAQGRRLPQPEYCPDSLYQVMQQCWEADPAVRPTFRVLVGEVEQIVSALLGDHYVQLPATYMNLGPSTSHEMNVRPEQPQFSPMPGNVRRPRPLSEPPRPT
Sequence of UniProt Q9UL54 (whole entry, looked up): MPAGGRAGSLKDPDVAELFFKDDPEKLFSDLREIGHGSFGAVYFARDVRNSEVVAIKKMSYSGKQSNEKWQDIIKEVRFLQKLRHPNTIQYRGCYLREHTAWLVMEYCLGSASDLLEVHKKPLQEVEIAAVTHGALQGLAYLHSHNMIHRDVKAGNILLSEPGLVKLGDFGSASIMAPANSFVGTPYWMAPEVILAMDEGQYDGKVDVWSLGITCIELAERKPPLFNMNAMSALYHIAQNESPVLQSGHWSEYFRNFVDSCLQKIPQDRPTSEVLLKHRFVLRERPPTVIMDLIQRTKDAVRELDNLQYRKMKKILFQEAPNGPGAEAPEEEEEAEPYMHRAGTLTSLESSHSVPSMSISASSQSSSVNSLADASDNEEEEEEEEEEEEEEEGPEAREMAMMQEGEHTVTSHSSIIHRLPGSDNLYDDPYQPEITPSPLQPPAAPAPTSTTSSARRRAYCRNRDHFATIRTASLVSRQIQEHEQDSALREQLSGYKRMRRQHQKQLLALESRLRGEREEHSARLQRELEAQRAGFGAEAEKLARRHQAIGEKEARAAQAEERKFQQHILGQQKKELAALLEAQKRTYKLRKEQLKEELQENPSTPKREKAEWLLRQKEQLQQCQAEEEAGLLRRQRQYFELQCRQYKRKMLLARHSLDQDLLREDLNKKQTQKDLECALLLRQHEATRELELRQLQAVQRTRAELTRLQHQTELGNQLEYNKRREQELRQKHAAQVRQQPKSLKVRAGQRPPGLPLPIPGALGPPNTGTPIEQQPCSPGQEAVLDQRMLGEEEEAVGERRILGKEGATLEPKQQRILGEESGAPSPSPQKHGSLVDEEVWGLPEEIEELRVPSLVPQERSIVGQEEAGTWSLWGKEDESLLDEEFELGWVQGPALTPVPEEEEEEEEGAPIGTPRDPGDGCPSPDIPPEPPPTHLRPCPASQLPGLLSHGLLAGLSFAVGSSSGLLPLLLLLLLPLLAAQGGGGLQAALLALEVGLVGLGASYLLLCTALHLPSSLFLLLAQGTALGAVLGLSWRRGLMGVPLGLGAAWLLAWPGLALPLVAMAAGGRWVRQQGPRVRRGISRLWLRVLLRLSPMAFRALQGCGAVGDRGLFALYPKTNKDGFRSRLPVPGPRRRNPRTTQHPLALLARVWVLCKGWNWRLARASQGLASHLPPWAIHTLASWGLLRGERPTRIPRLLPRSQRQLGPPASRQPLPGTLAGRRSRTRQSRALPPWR
Sequence of UniProt Q9Y6M4 (whole entry, looked up): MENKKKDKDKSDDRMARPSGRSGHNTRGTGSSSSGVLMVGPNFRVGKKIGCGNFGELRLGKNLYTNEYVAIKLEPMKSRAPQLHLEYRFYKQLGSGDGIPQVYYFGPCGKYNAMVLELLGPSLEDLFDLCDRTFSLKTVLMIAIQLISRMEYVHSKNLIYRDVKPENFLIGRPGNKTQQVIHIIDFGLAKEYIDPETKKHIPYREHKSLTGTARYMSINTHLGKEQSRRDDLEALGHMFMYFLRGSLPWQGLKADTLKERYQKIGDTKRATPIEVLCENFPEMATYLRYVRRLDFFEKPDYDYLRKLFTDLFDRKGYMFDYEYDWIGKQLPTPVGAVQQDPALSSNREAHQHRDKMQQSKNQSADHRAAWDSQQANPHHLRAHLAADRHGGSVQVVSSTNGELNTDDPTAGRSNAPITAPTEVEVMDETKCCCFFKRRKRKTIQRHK

Block 1
SMILES: NC(=O)c1ccc(-c2nc(-c3ccc4c(c3)OCCO4)c(-c3ccccn3)[nH]2)cc1
Observed: enzyme activity
Mode: inhibitor
Tested at: 0.5 µM
Baseline: control
MST1R (Homo sapiens, UniProt Q04912) — remaining activity: 107%.
NEK6 (Homo sapiens, UniProt Q9HC98) — remaining activity: 102%.
LCK (Homo sapiens, UniProt P06239) — remaining activity: 100%.
The remaining activity was 98.9% (GSK3B (Homo sapiens, UniProt P49841)).
The remaining activity was 107% (MAPK3 (Homo sapiens, UniProt P27361)).
It gave 98.5% for remaining activity (NEK1 (Homo sapiens, UniProt Q96PY6)).
The remaining activity was 90.2% (CSNK1G2 (Homo sapiens, UniProt P78368)).
It gave 101% for remaining activity (TAOK2 (Homo sapiens, UniProt Q9UL54)).
FRK (Homo sapiens, UniProt P42685) — remaining activity: 105%.
CSNK1G3 (Homo sapiens, UniProt Q9Y6M4) — remaining activity: 91.8%.
The remaining activity was 90.4% (TBK1 (Homo sapiens, UniProt Q9UHD2)).
The remaining activity was 105% (ARAF (Homo sapiens, UniProt P10398)).
It gave 104% for remaining activity (FGFR3 (Homo sapiens, UniProt P22607)).

Block 2
SMILES: O=C(NC[C@@H]1[C@H]2CN(C(=O)OCc3cc(C(F)(F)F)cc(C(F)(F)F)c3)C[C@@H]12)c1ccc2[nH]nnc2c1
Observed: cell-free assay
Technique: competition with immobilised ligand
Tested at: 1 µM
It gave 83% for remaining binding (FRK (Homo sapiens, UniProt P42685)).
It gave 88% for remaining binding (FGR (Homo sapiens, UniProt P09769)).
It gave 97% for remaining binding (ULK2 (Homo sapiens, UniProt Q8IYT8)).
SLK (Homo sapiens, UniProt Q9H2G2) — remaining binding: 100%.
PIP5K1C (Homo sapiens, UniProt O60331) — remaining binding: 98%.
For HIPK4 (Homo sapiens, UniProt Q8NE63): remaining binding read 100%.
The remaining binding was 95% (PIK3CA (Homo sapiens, UniProt P42336, M1043I)).
It gave 100% for remaining binding (ALK (Homo sapiens, UniProt Q9UM73, L1196M)).

Block 3
Target: Centromere-binding protein 1, full length, His-tagged (CBF1, Saccharomyces cerevisiae, UniProt P17106, residues 1-351)
Sequence of UniProt P17106 (whole entry, looked up): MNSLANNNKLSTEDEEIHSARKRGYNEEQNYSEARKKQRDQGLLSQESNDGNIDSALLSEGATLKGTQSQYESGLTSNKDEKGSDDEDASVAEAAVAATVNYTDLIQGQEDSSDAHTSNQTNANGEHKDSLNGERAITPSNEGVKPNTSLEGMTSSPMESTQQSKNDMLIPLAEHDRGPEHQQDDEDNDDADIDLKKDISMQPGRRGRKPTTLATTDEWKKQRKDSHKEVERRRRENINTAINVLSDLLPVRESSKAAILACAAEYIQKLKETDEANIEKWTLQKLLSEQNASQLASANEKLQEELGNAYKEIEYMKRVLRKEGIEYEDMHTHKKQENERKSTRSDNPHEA
Technique: competition protein-binding microarray
Molecule type: double-stranded DNA, one strand shown
Medium: in vitro
Tested at: 2 µM
Setting: whole 60-bp probe, lowest competitor level
With: Pho4 competitor, 0.05 µM
Direction: higher = stronger binding
`AGGCAGACAAGCTGTCATGTGTTCTGATTATGCCATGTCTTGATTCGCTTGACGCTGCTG` gave a fluorescence intensity of 404 a.u.
`CTTCTGTAAATTTTTCACGTGGTGTGAAGCGCCCCGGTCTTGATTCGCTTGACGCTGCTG` has a fluorescence intensity of 982 a.u.
The fluorescence intensity of `GTACGTTATTGCTGGCACGATCCTGTCGCTACGGCCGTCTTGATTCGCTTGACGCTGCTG` is reported as 64.9 a.u.
With `TTCATTTTTGGTTAACTCGTGTAACTCTTCTTCCAAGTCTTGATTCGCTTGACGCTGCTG` the fluorescence intensity was 93.7 a.u.
For `CTTTCCCGATCTTTTCACGTGGAGTTAGCACATTTGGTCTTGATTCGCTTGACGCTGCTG`, the fluorescence intensity was 486 a.u.
With `GCGTTGCAGATCGCTCAGCTGACTTTGAAGCATCGCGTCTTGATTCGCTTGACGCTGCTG` the fluorescence intensity was 172 a.u.
For `TAAGTTCCTTCCCAACACGTGGATTAGAATAGGTAGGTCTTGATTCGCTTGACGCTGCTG`, the fluorescence intensity was 1100 a.u.
The fluorescence intensity of `GATGTTGTCTGCTTTGTCGTGCTAACCAAACAGCAAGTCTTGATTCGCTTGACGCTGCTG` is reported as 80 a.u.

Mixed results
`medroxyprogesterone` has an inhibition of 20.7% (Sarcocystis neurona; parasite growth; 10 µM, first screen).

A few entries again (block 2):
It gave 97% for remaining binding (ULK2 (Homo sapiens, UniProt Q8IYT8)).
It gave 88% for remaining binding (FGR (Homo sapiens, UniProt P09769)).
The remaining binding was 95% (PIK3CA (Homo sapiens, UniProt P42336, M1043I)).
